Results of several laboratories.
Parts stem from different laboratories: compare values within a part only.

Series 1
Target: Interferon regulatory factor 5, full length, phosphomimetic (IRF5, Homo sapiens, UniProt Q13568-2, residues 1-514, S451D/S453D/S456D/S462D)
Method: protein-binding microarray
Molecule type: double-stranded DNA, one strand shown
Medium: in vitro
Concentration: 940 nM top
Notes: 60-bp whole probe
Together with: salmon DNA 0.4 mg/ml
Relative to: random background probes
Reading: higher = stronger binding
Endpoint: fitted relative affinity
GCCTAGCACTTAGAACTGAGTATCGTTTAGTGCTAGGTCTTGATTCGCTTGACGCTGCTG: 2.27 z-score
GCCTAGCACTTAGGTTTCGGTTTCGGATAGTGCTAGGTCTTGATTCGCTTGACGCTGCTG: 15.3 z-score
GCCTAGCACGACGGTATCCATATCCTGACGTGCTAGGTCTTGATTCGCTTGACGCTGCTG: 0.491 z-score

Series 2
Target: Histone acetyltransferase KAT6A, winged helix 1, GST fusion (KAT6A, Homo sapiens, UniProt Q92794, residues 1-85)
Method: protein binding microarray
Molecule type: double-stranded DNA, one strand shown
Medium: in vitro
Concentration: not given
Notes: 8-mer, flanks averaged, mean of 2 arrays, mostly near background
Relative to: not given
Reading: higher = stronger binding
Endpoint: E-score
Residues (chain): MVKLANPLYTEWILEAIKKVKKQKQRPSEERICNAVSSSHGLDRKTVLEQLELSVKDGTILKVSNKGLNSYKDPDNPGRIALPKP
AGCCTTAG: -0.222
GGTGTAAA: -0.129
TCAAGGGA: -0.112
AGGAAACT: -0.241
GGTAGCTA: -0.0136
CTCTGAAA: -0.158

Series 3
Target: RNA binding protein fox-1 homolog 2, RRM domain, GST-SBP tag (RBFOX2, Homo sapiens, UniProt O43251-10, residues 100-194)
Method: RNA Bind-n-Seq
Molecule type: RNA
Medium: in vitro
Concentration: 365 nM
Notes: natural RNA segment, single round, ends assumed
Relative to: no-protein control
Reading: higher = stronger binding
Endpoint: RBNS enrichment (R)
Residues (chain): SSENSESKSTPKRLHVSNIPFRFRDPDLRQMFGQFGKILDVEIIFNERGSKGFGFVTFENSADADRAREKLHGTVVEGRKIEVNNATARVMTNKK
GGGAGUUCUACAGUCCGACGAUCCAGCAGGCAACCUGCCCGUCUGUACAAAAAACUCAAAGGGCUGAGAUGAACGUCUUUCCUCUCCUGCCUCCCAUGAGACAGUCUCCUAGGAAUUCUUGGGGAAGUUUGGCUGGAAUUCUCGGGUGCCAA: 0.224
GGGAGUUCUACAGUCCGACGAUCCCCCUUCCCGGAAUUUAAACAAUAAUUAAUAGAAAUGAAUUUAUCUGAAUAUAGGAAGCAUAUACUUAAUUGUAACUUCUUAUGUUUAAAGGAAAAUUCUCAGUGUGAUAUGGAAUUCUCGGGUGCCAA: 0.466
GGGAGUUCUACAGUCCGACGAUCACUCUGUCAUCCUAUUGGCUGCUUCCCUCUACUAUUUGUAAAAUGUGUAGUGAAUUAUAACAACCUGAAGAUUGCUUUCUGAAACUGUUUUUAAGUUAAGGGAAAAAGUAUGGAAUUCUCGGGUGCCAA: 0.276
GGGAGUUCUACAGUCCGACGAUCGGGAGGGUUUUCGGGGGGUUCGGCGUCGCACCUUGGGGCCCCCCGCAGCCGUGUAGGGGGCCUCCCAUCUGCUAAGCGUUUUUCCGUUGAGCCGCUCCAAAAACACUAAGUGGAAUUCUCGGGUGCCAA: 0.308

Single results of other studies
PhoQ, residues 284 288 289 292 302 303 AGGLSV  fold induction (PhoP, residues 12 14 15 18 19 HLGGL (Escherichia coli, UniProt P23836); Sort-seq, refers to: YFP reporter; E. coli; PhoQ-PhoP variant library, together with: 10 µM Mg2+; relative to: high Mg2+ state, higher = stronger signaling): 1.26

Repeated from above (single results of other studies):
PhoQ, residues 284 288 289 292 302 303 AGGLSV  fold induction (PhoP, residues 12 14 15 18 19 HLGGL (Escherichia coli, UniProt P23836); Sort-seq, refers to: YFP reporter; E. coli; PhoQ-PhoP variant library, together with: 10 µM Mg2+; relative to: high Mg2+ state, higher = stronger signaling): 1.26
